Experimental data pooled from the literature.
A part holds a random share of what one study measured.

Sample 1
Target: Histone acetyltransferase KAT6A, winged helix 1, GST fusion (KAT6A, Homo sapiens, UniProt Q92794, residues 1-85)
Method: protein binding microarray
Molecule type: double-stranded DNA, one strand shown
Medium: in vitro
Concentration: not given
Setting: 8-mer, flanks averaged, mean of 2 arrays, mostly near background
Relative to: not given
Reading: higher = stronger binding
Endpoint: E-score
Construct (chain): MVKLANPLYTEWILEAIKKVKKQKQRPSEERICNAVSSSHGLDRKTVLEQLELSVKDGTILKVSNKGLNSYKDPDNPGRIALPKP
Strand = AGCTGGCG; result = 0.0442
Strand = TATCCCAA; result = -0.00779
Strand = ATAGCGTA; result = 0.264
Strand = CGACGACC; result = 0.0151
Strand = ACGTGCCA; result = -0.191
Strand = ACAATCAG; result = -0.111
Strand = CCCAGCGC; result = 0.23
Strand = TCTAGCCA; result = -0.0998
Strand = TGGGGTAA; result = -0.162
Strand = GTATAAGA; result = -0.0944
Strand = ATCTATCC; result = -0.113
Strand = GAACTAGC; result = 0.0266
Strand = CGGTACTA; result = 0.278
Strand = TAAGCTAA; result = -0.117
Strand = ACCATCCG; result = -0.0116
Strand = GCCATCCC; result = -0.0215
Strand = CACTTTCG; result = -0.0824
Strand = CGGCTTAC; result = 0.266
Strand = ACTCGTCT; result = -0.191
Strand = CACCACGC; result = 0.106
Strand = AGAAGACT; result = -0.151
Strand = ACCAGAGC; result = -0.0502
Strand = ACACTTAT; result = -0.171
Strand = CCTACAGG; result = -0.0618
Strand = ACAAATTG; result = -0.175

Sample 2
Target: RNA binding protein fox-1 homolog 2, RRM domain, GST-SBP tag (RBFOX2, Homo sapiens, UniProt O43251-10, residues 100-194)
Method: RNA Bind-n-Seq
Molecule type: RNA
Medium: in vitro
Concentration: 365 nM
Setting: natural RNA segment, single round, ends assumed
Relative to: no-protein control
Reading: higher = stronger binding
Endpoint: RBNS enrichment (R)
Target sequence (chain): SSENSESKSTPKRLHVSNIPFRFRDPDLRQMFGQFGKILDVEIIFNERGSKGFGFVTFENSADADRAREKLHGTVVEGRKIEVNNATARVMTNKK
Strand = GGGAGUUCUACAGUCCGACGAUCUGAGGCCAUCUGAGCCUCCAGACCAGACCCCAAACCAGCCCUUGAGUCUGUCACACUCUCUUGGGCCAGCCCCAGCACCUCAUGCAGAGGGUGGGGUACUGGAGUUAGAUUGGAAUUCUCGGGUGCCAA; result = 0.242
Strand = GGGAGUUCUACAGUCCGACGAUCGACAGAGAUCCUUGGAGGUUCAAAGACCAAGUACCAGACUGGAAAAUUGAGUCUGAAAGCCACAAGGACAGUCAACUCACAGCCAGCUCACAUUGCAGACACCAUUUUGGUGGAAUUCUCGGGUGCCAA; result = 0.255
Strand = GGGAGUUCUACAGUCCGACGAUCAAAGCCAGGGUGAUGCUCAGACAGUGUGCCAGCCAAAAUGACUUGGGGGAGGGGAGCCGCUUCCCCACUGUUGCUCUUUUUUAAACAAAUUGAGUUCCUUUUUUUAAGAUUGGAAUUCUCGGGUGCCAA; result = 0.682
Strand = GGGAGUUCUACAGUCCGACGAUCAUUAUAGAACCAACGGAAAUAUGGGCACUAUUUUGAAUUCUAGAGAUGGUUUUUGUUAAAUCUACUAAUAAACUGUUCUCUUAGUAGAUUAAGAGAGAGUAAUAUUAAUUUGGAAUUCUCGGGUGCCAA; result = 0.536
Strand = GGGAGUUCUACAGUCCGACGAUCUUUAACAUGAAUAGAUACCUUGUAAACUUGUAUUGUGGAUGUGUAAAUAAUAUGUACUUUGGGUUUUUAACACCGCAUGUAAAGUCAAAAUAAAAUAUACAAAUCAUUAUUGGAAUUCUCGGGUGCCAA; result = 42.4
Strand = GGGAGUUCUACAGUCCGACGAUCAUGGUUUGGGAUCUUUUUGCACUGAGCAAUUUUAUUUCAGGCUUCCAGCUGUCCCUGUGAGUUAUCCUGGACAUUUCGAUGGUUUUUGGUAAGGCCAAACUCUGAUAAGCUGGAAUUCUCGGGUGCCAA; result = 0.484
Strand = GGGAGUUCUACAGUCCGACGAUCUAUUACUUGGAAAUUCUGAGUAUUGCUAAAAAGGAGGAUGAAAGGGACCUAGAAGUUGAGUUAUUACUAAAAACUUUGAGUGCGAAGAUAUUACUCAUUAACCAGAUAACUGGAAUUCUCGGGUGCCAA; result = 0.396
Strand = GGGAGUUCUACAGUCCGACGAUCGUAGAUUUGCUGGACCUGAUCCCCAAGCACAGGAGUGGUACCCUCCACAGAAGCUGGGGGAGAGUCUGCAGCAGGCCUGAGCCUGCUGAUGUCAGUGCUGACUGAGUCCAUGGAAUUCUCGGGUGCCAA; result = 2.99
Strand = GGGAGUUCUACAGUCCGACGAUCGGCAGCAGGAAGAGCGCACUCUCGACAUUCUUGUCUCUGCUUUAGAAUGCUGCUGUGUCUGUCAUGUGUGCACUCCUCGCCCCUCCUCGCUUUGCUAACCAAAGAACAUAUGGAAUUCUCGGGUGCCAA; result = 0.417
Strand = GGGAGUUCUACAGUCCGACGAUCGGUUUACUGAAAUAGCCAAUUUGACUGGUGCUUAGACUAUUGUGCAGUAAACCUAAAAGGUAGUGGAGAAUUGCUUCCUGCUAGCAGGAAGCCUUCAUCUUCUUGAGUACUGGAAUUCUCGGGUGCCAA; result = 0.166
Strand = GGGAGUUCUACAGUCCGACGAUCUGCAAUAAUUUAGUAGCAUUAGCUUUAGUUACAAAUAUAACUGGAUCUUUCUGCUGACAACUUAGGUUGUAUGAGUUAUGCUUAAAAGCUUUAAAUCUGAUGUUUCCUGUUGGAAUUCUCGGGUGCCAA; result = 0.195
Strand = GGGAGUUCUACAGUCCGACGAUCAGUUUGUACUGGAGAACCAUACAGGACUUACCGCACCUUACCCCAUCCACUACCAUGUGCACUGACUGGCCUCAUUUUAUGAAGGAAGAGACAGGACCAGAGAGGCGAUGUGGAAUUCUCGGGUGCCAA; result = 0.234

Sample 3
Target: Sal-like protein 4, full length isoform A (SALL4, Homo sapiens, UniProt Q9UJQ4, residues 1-1053)
Sequence of UniProt Q9UJQ4 (whole entry, looked up): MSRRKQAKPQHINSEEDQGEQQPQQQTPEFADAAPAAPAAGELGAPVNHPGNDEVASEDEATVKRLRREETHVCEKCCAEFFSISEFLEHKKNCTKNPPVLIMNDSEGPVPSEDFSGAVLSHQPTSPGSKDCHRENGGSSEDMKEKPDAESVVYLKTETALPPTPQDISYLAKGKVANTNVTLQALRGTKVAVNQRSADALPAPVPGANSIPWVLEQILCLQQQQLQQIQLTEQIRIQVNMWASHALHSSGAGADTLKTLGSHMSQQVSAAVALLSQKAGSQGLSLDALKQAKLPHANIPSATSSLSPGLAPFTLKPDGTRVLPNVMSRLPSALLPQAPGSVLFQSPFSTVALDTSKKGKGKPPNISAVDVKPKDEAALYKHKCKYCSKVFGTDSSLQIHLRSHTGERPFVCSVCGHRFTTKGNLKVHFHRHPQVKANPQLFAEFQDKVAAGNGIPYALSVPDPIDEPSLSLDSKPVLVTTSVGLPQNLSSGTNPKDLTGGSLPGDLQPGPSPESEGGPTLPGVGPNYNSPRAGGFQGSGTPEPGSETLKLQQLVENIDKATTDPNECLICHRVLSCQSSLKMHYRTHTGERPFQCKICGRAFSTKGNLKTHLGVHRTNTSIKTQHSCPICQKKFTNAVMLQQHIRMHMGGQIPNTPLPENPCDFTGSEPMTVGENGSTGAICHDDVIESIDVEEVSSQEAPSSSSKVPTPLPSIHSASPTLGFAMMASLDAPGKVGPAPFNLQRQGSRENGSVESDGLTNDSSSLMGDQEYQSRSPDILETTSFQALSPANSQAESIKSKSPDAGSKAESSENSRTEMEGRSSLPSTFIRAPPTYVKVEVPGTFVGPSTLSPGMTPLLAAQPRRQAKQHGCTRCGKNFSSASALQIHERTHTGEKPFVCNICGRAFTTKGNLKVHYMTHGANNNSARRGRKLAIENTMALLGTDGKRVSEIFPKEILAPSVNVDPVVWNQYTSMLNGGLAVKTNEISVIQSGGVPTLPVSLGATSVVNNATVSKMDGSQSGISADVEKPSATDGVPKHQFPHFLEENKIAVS
Method: universal PBM
Molecule type: double-stranded DNA, one strand shown
Medium: in vitro
Concentration: 600 nM
Setting: 8-mer, flanks averaged, mean of replicates
Reading: higher = stronger binding
Endpoint: E-score
Strand = ATCAGAGA; result = 0.0655
Strand = CGATGGCA; result = -0.219
Strand = CACGAGCA; result = -0.0615
Strand = ACGTACTG; result = 0.0114
Strand = ATAGATGC; result = 0.0662
Strand = ACTCGGTC; result = -0.205
Strand = GCGGAAGA; result = -0.0423
Strand = AAAACCCA; result = 0.0659
Strand = CACATTTA; result = 0.295
Strand = CGGAACCG; result = -0.329
Strand = ATTTCGGG; result = 0.103
Strand = ACCGCTGG; result = -0.226
Strand = AAACGCGC; result = -0.305
Strand = GACCGTAC; result = -0.215
Strand = CGCCGACC; result = -0.379
Strand = CTGGTAGC; result = -0.202
Strand = AGCTGACT; result = -0.158
Strand = ACCTTAAG; result = 0.0897
Strand = AACAATTC; result = 0.152

Sample 4
Target: RING finger protein unkempt homolog, zinc fingers 1-6, GST-SBP tag (UNK, Homo sapiens, UniProt Q9C0B0, residues 30-357)
Sequence of UniProt Q9C0B0 (30-357, looked up): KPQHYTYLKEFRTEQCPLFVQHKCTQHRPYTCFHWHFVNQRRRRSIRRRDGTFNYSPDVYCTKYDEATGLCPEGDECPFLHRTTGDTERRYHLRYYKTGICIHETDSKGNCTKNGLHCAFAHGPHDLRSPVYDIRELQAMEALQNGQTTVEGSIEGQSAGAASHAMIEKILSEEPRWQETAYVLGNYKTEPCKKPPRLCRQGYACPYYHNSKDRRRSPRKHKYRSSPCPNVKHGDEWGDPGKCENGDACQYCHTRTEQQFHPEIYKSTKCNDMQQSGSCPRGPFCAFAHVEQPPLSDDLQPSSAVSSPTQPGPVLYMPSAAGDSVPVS
Method: RNA Bind-n-Seq
Molecule type: RNA
Medium: in vitro
Concentration: not given
Setting: RNA with constant flanks, human and mouse sites, ends assumed
Relative to: input RNA pool
Reading: higher = stronger binding
Endpoint: bound/input enrichment
Strand = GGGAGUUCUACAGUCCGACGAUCGCAUCCCCAGAUGUCAAAUUAAAUCUUGGUGGAGAUUUUAUCAAAGAAUCUACAGCUACUACAUUUCUGAGACAAAGAGGUUAUGGCUGGCUUCUGGAAGUUGAAGAUGAUGAUCCUGAACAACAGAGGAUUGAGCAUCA; result = 0.254 ratio
Strand = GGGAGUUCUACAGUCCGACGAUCAUGUCUAGUGGCCUAGAAUUUGUAUCCCACAAUCCCCCAAGUGAAGCAGCUGCUCCUCCAGUGGCAAGGACCAGUCCUGCAGGGGGAACGUGGUCCUCAGUGGUCAGUGGGGUUCCAAGGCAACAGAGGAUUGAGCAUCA; result = 0.11 ratio
Strand = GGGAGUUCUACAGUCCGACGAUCUGCAGUUCAAAUCCUUGCCCCAGUGAGGGAAUCCCUAGGGAAGUGGGUGAUGGGACUAGAGUAGAUCCACUUCCUCCAGUUCAUUCGGCCUCUAAAGAAAUCACAGAGUCCAAGGCACAACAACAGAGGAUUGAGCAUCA; result = 0.192 ratio
Strand = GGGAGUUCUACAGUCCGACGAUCUCAGGCUUAUUGAUGAUGCUUUUUGCAAAUGUUGAAUCAUGGUUCUGUUUCUAAGUUGGAUCUUUUUUGUUUUCUCCUUGCCACCCUAAUUUGACAUCAAAAUUCUCUCUUGUGCAUUGGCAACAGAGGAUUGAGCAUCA; result = 0.163 ratio
Strand = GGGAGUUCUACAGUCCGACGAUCGAAAGAACCGUUCCCAGGAUAUUUGUCAAUGGACGAUUUAUUGGAGGCGCAGCGGACACUCACAGGCUUCACAAAGAAGGGAAAUUGCUGCCUCUGGUUCAUCAGUGUUAUUUAAAAAAACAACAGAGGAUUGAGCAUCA; result = 0.164 ratio
Strand = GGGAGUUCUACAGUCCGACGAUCGAAGGCAAACCACUCUUCUCCCAGGCCUCUGCUCACCAGGGCUUGAGCUUUGCCUCAAGGAUAGAAGGAUGUACAGAGGGGGCUCUUGGUUUGAGGACCACUUGAGCCGUUUUCUCAUCUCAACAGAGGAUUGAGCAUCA; result = 0.233 ratio
Strand = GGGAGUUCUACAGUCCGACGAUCGCUCACUUCGACCUUGCCUUGGCACGGUCUGCUAAACUACGAAACCCAAAAAAUGACCUCCUAGUAUUGCAUCUCUCUGACCUGAUUCGAAUGGCAUUCAUGGCUGCAACUGAUCAUAGCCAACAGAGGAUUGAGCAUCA; result = 0.196 ratio
Strand = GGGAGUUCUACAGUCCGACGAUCUAUGCCUGGAUGUGAGGAGUGGUAAUUCGUGUCCUCCUCAUGCUUGUGAAGCAGGCAUUUGAUCAAGCUAUUUCCUGAUUAUUCCAAAUGUCAUUUACAUUCAAAACAUUUUAACACUUGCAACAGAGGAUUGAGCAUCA; result = 0.218 ratio
Strand = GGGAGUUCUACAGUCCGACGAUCAUGAUGAUUUUCAUUGAAGCAUCCUCAGAAAACCCUUGUAGUCUUUACUCUUCUGUCUGUUAUAGCCCCCAGGCAGAAAAAGUUUACAAGUUAUGCAGCCCACCCGCUGAUUUGCAUAAGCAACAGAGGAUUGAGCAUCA; result = 0.193 ratio
Strand = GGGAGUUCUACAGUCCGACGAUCGCAAAACCACACCCGGCAUGAGGCAAAUCUUAGUCAACUGCUGUGAAGAGUCUGAAGCAGACCUGUAUCCCACACCUGGGAAUAAAACAAAAACAUAGUCUCAUAACAUUUCAGUGGAUUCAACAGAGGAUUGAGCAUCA; result = 0.353 ratio
Strand = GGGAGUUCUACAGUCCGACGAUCAUAGUAUGUGAUCCUGUAUAACAGACUGAGUCUAUUUAUAUUUUCUUUUUUUUAAGACUGUCUAGAAAUUUUGUGUAUUAUGAGGGGAAAAAAGGAAAAGCUUGAAUCUGUGUAGUCUCUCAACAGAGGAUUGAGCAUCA; result = 3.05 ratio

Sample 5
Target: Prothrombin, mature alpha-thrombin (F2, Homo sapiens, UniProt P00734)
Method: aptamer microarray, sandwich
Molecule type: DNA with 2'F-ANA
Medium: in vitro
Concentration: 200 nM
Setting: whole 15-mer aptamer, many near background
Added: Cy3 exosite-II aptamer, 400 nM
Reading: higher = stronger binding
Endpoint: mean fluorescence intensity
Strand: GGTTGGTGTGGTTGG
Modification = 2'F-ANA at 2 5 6 7 8 10 11 12 13; result = 49.9 a.u.
Modification = 2'F-ANA at 1 2 4 7 10 14 15; result = 76.3 a.u.
Modification = 2'F-ANA at 1 5 6 7 8 10 11 12 13 14 15; result = 48.5 a.u.
Modification = 2'F-ANA at 4 5 8 10 13; result = 43.7 a.u.
Modification = 2'F-ANA at 9 14; result = 210 a.u.
Modification = 2'F-ANA at 1 5 7 8 9 10 11; result = 46.5 a.u.
Modification = 2'F-ANA at 1 3 4 5 6 10 11 13 15; result = 50.1 a.u.
Modification = 2'F-ANA at 3 4 8 10 11 14 15; result = 186 a.u.
Modification = 2'F-ANA at 1 3 5 6 8 11 14; result = 47.5 a.u.
Modification = 2'F-ANA at 1 4 5 6 7 8 10 11 13 14; result = 51.5 a.u.
Modification = 2'F-ANA at 3 6 7 9 11 12 14 15; result = 477 a.u.
Modification = 2'F-ANA at 2 3 4 7 9 10 11 12 13 14; result = 156 a.u.
Modification = 2'F-ANA at 1 4 6 8 12 13 14; result = 56.8 a.u.
Modification = 2'F-ANA at 1 2 3 4 8 10 11 13 15; result = 84.2 a.u.
Modification = 2'F-ANA at 2 3 5 8 9 11 14 15; result = 51.1 a.u.
Modification = 2'F-ANA at 3 6 14; result = 631 a.u.

A few entries again (sample 1):
Strand = TGGGGTAA; result = -0.162
Strand = AGAAGACT; result = -0.151
Strand = TAAGCTAA; result = -0.117
Strand = ATAGCGTA; result = 0.264
Strand = CACTTTCG; result = -0.0824
